Experimental data of several laboratories.
Each numbered part is a random draw from the data of one study; scales do not carry over between parts.

Series 1 — technique: protein binding microarray; molecule type: double-stranded DNA, one strand shown; matrix: in vitro; tested at: not given; reference: not given; direction: higher = stronger binding
Target: Histone acetyltransferase KAT6A, winged helix 2, GST fusion (KAT6A, Homo sapiens, UniProt Q92794, residues 85-181)
Setting: 8-mer, flanks averaged, mean of 2 arrays, mostly near background
Target sequence (chain): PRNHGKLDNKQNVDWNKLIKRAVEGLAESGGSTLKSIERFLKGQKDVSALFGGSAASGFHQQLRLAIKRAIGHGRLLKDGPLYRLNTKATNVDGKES
`AGATGTAG` has an E-score of -0.163.
The E-score of `TACCACAA` is reported as 0.0463.
The E-score of `AAGTACGC` is reported as -0.115.
With `GGCACGCA` the E-score was 0.172.
`ATCGACAT` has an E-score of 0.0828.
The E-score of `GCTGAGAC` is reported as -0.0592.
`AGTTAATA` has an E-score of 0.0326.
The E-score of `GCTCCCAC` is reported as 0.102.
For `AGCAGCGG`, the E-score was 0.122.
`AATGGTCT` gave an E-score of -0.14.
For `AGTGTGCG`, the E-score was -0.0833.
For `CAATCGTA`, the E-score was -0.0303.
`ACGTCAAC` has an E-score of -0.0785.
`GACTAGAA` has an E-score of -0.114.
For `AACGAATT`, the E-score was -0.0164.
The E-score of `AATTTGCA` is reported as -0.00109.
The E-score of `AGGACGAT` is reported as -0.192.
With `ACATACGG` the E-score was -0.166.
The E-score of `CTTGCAGC` is reported as 0.106.
The E-score of `CATCGACA` is reported as -0.0849.

Series 2 — technique: protein-binding microarray; molecule type: double-stranded DNA, one strand shown; matrix: in vitro; tested at: 2540 nM top; setting: 60-bp whole probe; added: salmon DNA 0.4 mg/ml; reference: random background probes; direction: higher = stronger binding; shared flanks, not repeated: GCCTAGCAC … GTCTTGATTCGCTTGACGCTGCTG
Target: Interferon regulatory factor 3, full length, phosphomimetic (IRF3, Homo sapiens, UniProt Q14653, residues 1-427, S386D/S396D/S398D/S402D/T404D/S405D)
Residues (chain): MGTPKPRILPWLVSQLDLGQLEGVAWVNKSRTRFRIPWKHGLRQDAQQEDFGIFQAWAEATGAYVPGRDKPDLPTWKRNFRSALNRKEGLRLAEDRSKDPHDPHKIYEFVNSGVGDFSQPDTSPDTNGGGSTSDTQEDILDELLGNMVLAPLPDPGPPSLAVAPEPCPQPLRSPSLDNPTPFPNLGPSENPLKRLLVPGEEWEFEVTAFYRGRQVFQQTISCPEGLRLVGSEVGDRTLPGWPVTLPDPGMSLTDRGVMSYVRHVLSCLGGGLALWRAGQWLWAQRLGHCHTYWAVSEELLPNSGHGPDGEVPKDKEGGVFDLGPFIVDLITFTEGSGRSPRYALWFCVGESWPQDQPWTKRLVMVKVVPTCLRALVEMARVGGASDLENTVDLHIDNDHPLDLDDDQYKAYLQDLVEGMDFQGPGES
For `GACGGTATCCTTATCTTGACGTGCTAG`, “fitted relative affinity” read 4.44 z-score.
`TCATGATTACATATATGACTGTGCTAG`: “fitted relative affinity” 0.453 z-score.
`TTAGGTACCGGGTTTCGGTTAGTGCTA`: “fitted relative affinity” 2.93 z-score.
`TCAGAGTCCTGTTTGATACTGTGCTAG`: “fitted relative affinity” 0.176 z-score.
Under “fitted relative affinity”, `GACGGTATCGGGTTTCGCGACGTGCTA` is recorded as 2.55 z-score.
For `GACGGTCGCGGACTGGGGACGTGCTAG`, “fitted relative affinity” read -0.626 z-score.
Under “fitted relative affinity”, `GACGGTATCCTTATCCTAACGTGCTAG` is recorded as 5.59 z-score.
For `TTAGGCTCCGGTTTCGGTTAGTGCTAG`, “fitted relative affinity” read 4.27 z-score.
`TTAGGTTCCCTTTCCCTTTAGTGCTAG` — result for “fitted relative affinity”: 8.03 z-score.
`GAGGATATCGGGTTTCGAGACGTGCTA`: “fitted relative affinity” 0.732 z-score.
Under “fitted relative affinity”, `GTTACTTTCTACTTCTCTTTGTGCTAG` is recorded as 3.67 z-score.
`GACGGACTGGGGTATCGGGATGTGCTA`: “fitted relative affinity” -0.387 z-score.
Under “fitted relative affinity”, `AGGTTCTACTCCGTTAGTTGGTGCTAG` is recorded as 0.168 z-score.
Under “fitted relative affinity”, `TCATCTTGCAGATGTCGCACTGTGCTA` is recorded as 1.02 z-score.
Under “fitted relative affinity”, `GACGGTATCGGTATCTGGACGTGCTAG` is recorded as 3.93 z-score.
`GACGGTTTCCTTTTCCAGACGTGCTAG`: “fitted relative affinity” 11.3 z-score.
Under “fitted relative affinity”, `GACTAACTGAGTCTCGAGACGTGCTAG` is recorded as -0.222 z-score.
`TTAGGTATCCTGCTCCTTTAGTGCTAG` — result for “fitted relative affinity”: 1.54 z-score.
For `GTTCAAAGTCCTACGGCTTCGTGCTAG`, “fitted relative affinity” read -0.267 z-score.
Under “fitted relative affinity”, `GAAAATCCCACATTTGATAAAGTGCTA` is recorded as 0.645 z-score.

Series 3 — technique: universal PBM; molecule type: double-stranded DNA, one strand shown; matrix: in vitro; tested at: 600 nM; direction: higher = stronger binding
Target: Sal-like protein 4, full length isoform A (SALL4, Homo sapiens, UniProt Q9UJQ4, residues 1-1053)
Sequence of UniProt Q9UJQ4 (whole entry, looked up): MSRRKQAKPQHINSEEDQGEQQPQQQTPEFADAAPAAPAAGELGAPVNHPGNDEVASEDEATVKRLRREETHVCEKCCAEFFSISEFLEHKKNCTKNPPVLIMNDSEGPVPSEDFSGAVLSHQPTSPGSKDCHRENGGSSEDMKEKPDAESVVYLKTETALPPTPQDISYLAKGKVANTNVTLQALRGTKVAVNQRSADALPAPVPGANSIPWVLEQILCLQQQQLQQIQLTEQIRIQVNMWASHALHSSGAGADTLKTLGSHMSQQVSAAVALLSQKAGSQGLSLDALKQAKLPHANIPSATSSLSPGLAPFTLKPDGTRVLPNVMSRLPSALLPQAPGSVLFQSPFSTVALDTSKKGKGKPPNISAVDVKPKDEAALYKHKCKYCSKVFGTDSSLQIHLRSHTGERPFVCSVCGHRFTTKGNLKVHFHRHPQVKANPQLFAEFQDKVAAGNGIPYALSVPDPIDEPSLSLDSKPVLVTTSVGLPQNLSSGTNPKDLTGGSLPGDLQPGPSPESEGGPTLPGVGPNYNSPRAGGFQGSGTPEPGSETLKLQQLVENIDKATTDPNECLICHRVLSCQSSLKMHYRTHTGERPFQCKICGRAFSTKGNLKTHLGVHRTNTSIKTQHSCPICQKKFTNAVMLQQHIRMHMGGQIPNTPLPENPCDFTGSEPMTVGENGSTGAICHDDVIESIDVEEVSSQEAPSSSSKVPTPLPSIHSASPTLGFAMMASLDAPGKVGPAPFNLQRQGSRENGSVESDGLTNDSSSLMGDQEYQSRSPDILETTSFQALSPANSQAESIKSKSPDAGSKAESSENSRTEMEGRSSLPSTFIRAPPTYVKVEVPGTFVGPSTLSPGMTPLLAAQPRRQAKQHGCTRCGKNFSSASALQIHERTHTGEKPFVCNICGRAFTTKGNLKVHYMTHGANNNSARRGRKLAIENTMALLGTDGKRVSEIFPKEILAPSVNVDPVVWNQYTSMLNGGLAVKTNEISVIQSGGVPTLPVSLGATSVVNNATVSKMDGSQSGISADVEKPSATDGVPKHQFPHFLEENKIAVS
Setting: 8-mer, flanks averaged, mean of replicates
For `GTAGCCAC`, the E-score was -0.13.
`CGGGAACG` has an E-score of -0.287.
For `AGCCGGAA`, the E-score was -0.151.
`CGGTTGTC` gave an E-score of -0.157.
For `AGCCGCAG`, the E-score was -0.4.
The E-score of `GGGAACCA` is reported as -0.25.
`ACTTGTGC` gave an E-score of -0.022.
The E-score of `ACCGAGGG` is reported as -0.397.
For `ATGATAGC`, the E-score was 0.318.
With `AACAGGCC` the E-score was -0.26.
`AGCGTTCC` gave an E-score of -0.0866.
`CACGGCCA` has an E-score of -0.291.
`CCAAGGGA` has an E-score of -0.223.
The E-score of `GTCGTTTA` is reported as 0.141.
With `CTACTTAA` the E-score was 0.0977.
`GTCTCGAA` has an E-score of 0.0498.
`GCGGGTGA` has an E-score of -0.261.
With `GCCTCATA` the E-score was 0.172.
With `ATGATCCA` the E-score was 0.0569.
`GAACAGTC` gave an E-score of -0.207.
The E-score of `GAGTGAGA` is reported as -0.101.
With `CATTACCC` the E-score was -0.0841.
For `ACTCTAAT`, the E-score was 0.195.
`AGAGACGA` has an E-score of 0.0328.
With `AGGTGCCG` the E-score was -0.233.

Series 4 — technique: RNA Bind-n-Seq; molecule type: RNA; matrix: in vitro; tested at: 365 nM; reference: no-protein control; direction: higher = stronger binding
Target: RNA binding protein fox-1 homolog 2, RRM domain, GST-SBP tag (RBFOX2, Homo sapiens, UniProt O43251-10, residues 100-194)
Setting: natural RNA segment, single round, ends assumed
Construct (chain): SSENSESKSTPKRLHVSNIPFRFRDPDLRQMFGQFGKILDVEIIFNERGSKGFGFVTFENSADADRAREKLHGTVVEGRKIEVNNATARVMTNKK
Under “RBNS enrichment (R)”, `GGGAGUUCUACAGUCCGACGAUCCUAGGCAAGUUGUAAAUAAAUUCAUAAUUCAAACAGCCAGUAUAUAUGCAUAUAUGAGUGUUAUAUUGCAAAAUCUUUGUUUUACUUACAUGGUUAAAGCAGCAAGAAUUUGGAAUUCUCGGGUGCCAA` is recorded as 0.667.
`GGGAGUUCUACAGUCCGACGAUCUCUUGCACACAAUUCCUUUGAAAUUACAUUGACAGCCAGGAGACAAAGGAGAGAACUGUUAACUAGCAGAAUGCAUUUUAUAGAGCUCUGGCUAACCGCCUCUUAGCCCAUGGAAUUCUCGGGUGCCAA`: “RBNS enrichment (R)” 1.01.
For `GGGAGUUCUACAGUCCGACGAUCUGAAUAACCCUGCUUGAUUUUAGCAACAAGAGACAAUCCAUGCCAUGCUUUUAUCCUGAGAAACCUGGACCCUUAGGCUCUGACUAACAAAGACAGUUCAGCUCCAGACAUGGAAUUCUCGGGUGCCAA`, “RBNS enrichment (R)” read 0.449.
`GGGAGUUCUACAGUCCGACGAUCUCCUCAAGGACCCCUUCUUCCUUUAGGCCUUUCUGUCUUGAUCUGUGCAUUAAGAAAUUUAAGUUUGGGGCUGGAGAAAUGGCCCAUCGAUUAAGAAAGAGCACUGGUGGUGGAAUUCUCGGGUGCCAA`: “RBNS enrichment (R)” 0.958.
Under “RBNS enrichment (R)”, `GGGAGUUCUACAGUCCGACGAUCUUUCUUGUUCAUUCUUACUACGUAUUUUUUGACUUAAGAAUGACAUCUUUAGAUGCAUUUCAGAGCCAAUGAUGAUAUUUGCUUUAGAUAAUUAUUAUAUUAUUAUAAAUUGGAAUUCUCGGGUGCCAA` is recorded as 1.5.
Under “RBNS enrichment (R)”, `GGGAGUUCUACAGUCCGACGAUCCUCCGUAGGCUUGGGGAUGGUUCCCUCAAAGUGAGCCACUAUUAGAUUUGCCCAUCAGGGGAAAAGAAAUGGGGUUAUAUCCAUUAGGAAAAUCCCAUUUUAUAGAUAGAUGGAAUUCUCGGGUGCCAA` is recorded as 0.33.
For `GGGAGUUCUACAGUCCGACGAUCUGAGGAGUUAGAAGAUGAGGUGUCUAUGAUGUUGAUGUAAUGUAUACGUAGGCGAUAUAUGUAAGUGUUCUGAUAACAUGACUCUAAUGGUGUUUAAGUGUUCUGAUAACUGGAAUUCUCGGGUGCCAA`, “RBNS enrichment (R)” read 0.653.
Under “RBNS enrichment (R)”, `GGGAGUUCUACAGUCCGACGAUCUCAGGGCAGGGACCAAGCGUGCACAUUCUUUCCAUUUCAUAGUUGAUACUUUUAUAUGUACUGCUGCUGCUGCUCUUUGACAUUGCCUGCCUGCCUGGCACCUUUUCAUUUGGAAUUCUCGGGUGCCAA` is recorded as 0.362.
For `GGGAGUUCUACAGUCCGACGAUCAAGGUCUCCCGUGAGUGUCUGUCGGGCACCCAGGUUGUAGGUGUUUGAGAUUCUGUAGGAGGGAGGGAAGGACAGCACCUGUGGCCACCUUCCCUCUUCCGGAUCUGUUUUGGAAUUCUCGGGUGCCAA`, “RBNS enrichment (R)” read 1.75.
Under “RBNS enrichment (R)”, `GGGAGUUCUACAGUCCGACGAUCGCUUAAUAUGUGCCAGGCAUAGUGCUAAGGGUUUACAUACGUUAUCCCUUUUAAUCCAGAAAACAGCCUUUGAUUAGGUAUUGUUGUCUCCAUUUUAUAGAUGAGGAAACUGGAAUUCUCGGGUGCCAA` is recorded as 0.296.
Under “RBNS enrichment (R)”, `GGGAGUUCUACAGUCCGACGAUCAUUAAGCAUAAUAUUUUUUCCAUACUCAGAAUGAAAAUAAACUGGAUAUUACCUUUUUUUUUUUUUUUGUACAAAUUUAAAUACUAGGUCCAGGCUGGAAGAAUUGUAACUGGAAUUCUCGGGUGCCAA` is recorded as 0.445.
`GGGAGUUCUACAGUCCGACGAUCAGUGUCCCUUGGGUCACACAGCUAAAGCCGAGGUGACCAGUUGUACCCCGAGUGCCAGGCUUGUGAGAUGAGACCAAGAGGGAGGAGGGGAAGGACUCCAUGGGCCAUCGUGGAAUUCUCGGGUGCCAA` — result for “RBNS enrichment (R)”: 0.814.

Some of these lines once more (series 2):
For `GACGGTCGCGGACTGGGGACGTGCTAG`, “fitted relative affinity” read -0.626 z-score.
`GAGGATATCGGGTTTCGAGACGTGCTA`: “fitted relative affinity” 0.732 z-score.
`TCAGAGTCCTGTTTGATACTGTGCTAG`: “fitted relative affinity” 0.176 z-score.
Under “fitted relative affinity”, `GACGGTATCGGGTTTCGCGACGTGCTA` is recorded as 2.55 z-score.
`TCATGATTACATATATGACTGTGCTAG`: “fitted relative affinity” 0.453 z-score.
`TTAGGTACCGGGTTTCGGTTAGTGCTA`: “fitted relative affinity” 2.93 z-score.
Under “fitted relative affinity”, `TCATCTTGCAGATGTCGCACTGTGCTA` is recorded as 1.02 z-score.
For `GTTCAAAGTCCTACGGCTTCGTGCTAG`, “fitted relative affinity” read -0.267 z-score.
`GACGGACTGGGGTATCGGGATGTGCTA`: “fitted relative affinity” -0.387 z-score.
Under “fitted relative affinity”, `GAAAATCCCACATTTGATAAAGTGCTA` is recorded as 0.645 z-score.
For `GACGGTATCCTTATCTTGACGTGCTAG`, “fitted relative affinity” read 4.44 z-score.
